Published values from different studies.
Each numbered part is a random draw from the data of one study; scales do not carry over between parts.

Set 1 — method: RNA Bind-n-Seq; molecule type: RNA; medium: in vitro; concentration: 20 nM; notes: 6-mer, flanks averaged, single round; with: 150 mM KCl; reference: input library; direction: higher = stronger binding
Target: TAR DNA-binding protein 43, full length, His tag (TARDBP, Homo sapiens, UniProt Q13148, residues 1-414)
| Strand | 6-mer enrichment (R) |
| --- | --- |
| UUACGA | 0.595 |
| UUUUAG | 0.682 |
| GAGGUU | 1.24 |
| AUAGAC | 0.637 |
| GUCACG | 0.964 |
| GAACUC | 0.738 |
| CGCAAC | 0.685 |
| GUCGGG | 3.34 |
| GACUCC | 0.687 |
| GUUUUU | 0.776 |
| AGGUGG | 3.53 |
| UGCGGC | 1.45 |
| ACUGAG | 0.919 |
| CCAGCA | 0.719 |
| AAGAAU | 0.891 |
| UAUACG | 0.65 |
| GAGAAU | 0.975 |
| AGAUGA | 0.84 |
| AGGUUG | 1.22 |
| GCCCAC | 0.708 |

Set 2 — method: protein binding microarray; molecule type: double-stranded DNA, one strand shown; medium: in vitro; concentration: not given; reference: not given; direction: higher = stronger binding
Target: Histone acetyltransferase KAT6A, winged helix 2, GST fusion (KAT6A, Homo sapiens, UniProt Q92794, residues 85-181)
Notes: 8-mer, flanks averaged, mean of 2 arrays, mostly near background
Residues (chain): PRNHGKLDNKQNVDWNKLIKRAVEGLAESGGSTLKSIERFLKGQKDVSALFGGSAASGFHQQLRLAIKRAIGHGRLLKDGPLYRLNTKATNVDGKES
| Strand | E-score |
| --- | --- |
| GAACGACA | 0.0438 |
| ACTCTGCG | 0.071 |
| CAGCTGTA | -0.125 |
| CTTGCGGC | 0.15 |
| GAACTTGC | 0.0861 |
| GTCATTCA | -0.124 |
| CAGAGGAG | 0.0436 |
| TCCACACA | 0.0777 |
| ACCTGCAC | -0.128 |
| AAGAGAGC | -0.0284 |
| CCGGCATC | 0.167 |
| ACTCTTAG | 0.021 |
| AACGGCAG | 0.14 |
| CAGGATTA | 0.00072 |
| GCGGACGC | 0.219 |
| GCACCAGA | 0.104 |
| ATCTTACG | -0.0653 |
| GATACTAC | 0.0332 |
| CACGATGC | -0.00596 |
| CAACACGG | 0.0625 |
| ACGTCCCA | -0.209 |
| TATGCCGA | 0.0368 |
| TAGATAAA | 0.0975 |
| CCGATAGC | -0.227 |
| ACCGGGAG | -0.108 |

Set 3 — method: universal PBM; molecule type: double-stranded DNA, one strand shown; medium: in vitro; concentration: 600 nM; direction: higher = stronger binding
Target: Sal-like protein 4, full length isoform A (SALL4, Homo sapiens, UniProt Q9UJQ4, residues 1-1053)
UniProt Q9UJQ4, sequence (whole entry, looked up): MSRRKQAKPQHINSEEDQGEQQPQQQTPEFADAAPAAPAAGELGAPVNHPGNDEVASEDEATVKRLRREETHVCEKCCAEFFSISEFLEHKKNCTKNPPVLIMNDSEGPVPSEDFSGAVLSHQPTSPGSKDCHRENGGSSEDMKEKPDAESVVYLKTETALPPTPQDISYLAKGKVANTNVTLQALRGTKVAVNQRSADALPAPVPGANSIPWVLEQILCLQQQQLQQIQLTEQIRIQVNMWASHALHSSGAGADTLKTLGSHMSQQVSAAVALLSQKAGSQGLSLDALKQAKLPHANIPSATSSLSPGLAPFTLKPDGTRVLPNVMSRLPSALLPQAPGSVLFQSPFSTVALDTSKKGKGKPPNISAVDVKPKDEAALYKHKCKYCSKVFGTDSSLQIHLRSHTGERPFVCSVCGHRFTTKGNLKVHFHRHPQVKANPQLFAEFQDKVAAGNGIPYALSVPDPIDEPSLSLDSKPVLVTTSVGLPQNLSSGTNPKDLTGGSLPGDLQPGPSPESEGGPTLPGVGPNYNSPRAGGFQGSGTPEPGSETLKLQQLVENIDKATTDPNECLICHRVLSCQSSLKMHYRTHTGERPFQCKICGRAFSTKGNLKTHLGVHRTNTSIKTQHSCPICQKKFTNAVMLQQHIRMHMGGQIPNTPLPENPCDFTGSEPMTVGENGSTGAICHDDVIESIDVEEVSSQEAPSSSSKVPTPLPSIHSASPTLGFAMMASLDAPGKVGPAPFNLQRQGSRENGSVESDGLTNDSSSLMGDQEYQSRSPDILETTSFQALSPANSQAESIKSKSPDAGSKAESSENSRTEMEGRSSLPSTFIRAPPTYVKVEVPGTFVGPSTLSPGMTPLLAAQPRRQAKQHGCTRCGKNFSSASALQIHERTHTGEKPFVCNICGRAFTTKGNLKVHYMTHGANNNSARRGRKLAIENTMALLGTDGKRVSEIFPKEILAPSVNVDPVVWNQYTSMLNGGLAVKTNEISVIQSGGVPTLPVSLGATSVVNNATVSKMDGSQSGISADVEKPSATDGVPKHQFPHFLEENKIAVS
Notes: 8-mer, flanks averaged, mean of replicates
| Strand | E-score |
| --- | --- |
| ACTTCGAC | 0.0311 |
| ACCACCAC | 0.00645 |
| ACCTTGTA | 0.231 |
| CGCCAGGC | -0.382 |
| GCACCTTA | 0.022 |
| GGACGTTA | 0.0155 |
| ATGGACAG | -0.00581 |
| CTACCCCA | -0.0717 |
| ACGCTGGG | -0.361 |
| CTAACGTC | -0.0243 |
| GGACCGTA | -0.199 |
| CAGGACCG | -0.228 |
| ACTCGAGT | 0.0417 |
| CGCCATAG | -0.0619 |
| CCGGCCCG | -0.363 |
| ACCTGTTA | 0.0314 |
| TCGGACGA | -0.105 |

Set 4 — organism: Saccharomyces cerevisiae; observed: peptide binding; method: yeast competitive growth sequencing; molecule type: peptide; strain: cyclin F-Cln2 fusion; concentration: concentration not given; notes: library 1, Cln2-subtracted; direction: direction not given
| Sequence | binding score |
| --- | --- |
| GSALKKLFTSTGL | 1.21 |
| GSPAKKLFTSTGL | -0.0621 |
| GSPLAKAFTSTGL | -0.465 |

Set 5 — method: RNA Bind-n-Seq; molecule type: RNA; medium: in vitro; concentration: not given; notes: RNA with constant flanks, ends assumed; reference: input RNA pool; direction: higher = stronger binding
Target: RING finger protein unkempt homolog, zinc fingers 1-6, GST-SBP tag (UNK, Homo sapiens, UniProt Q9C0B0, residues 30-357)
UniProt Q9C0B0, sequence (30-357, looked up): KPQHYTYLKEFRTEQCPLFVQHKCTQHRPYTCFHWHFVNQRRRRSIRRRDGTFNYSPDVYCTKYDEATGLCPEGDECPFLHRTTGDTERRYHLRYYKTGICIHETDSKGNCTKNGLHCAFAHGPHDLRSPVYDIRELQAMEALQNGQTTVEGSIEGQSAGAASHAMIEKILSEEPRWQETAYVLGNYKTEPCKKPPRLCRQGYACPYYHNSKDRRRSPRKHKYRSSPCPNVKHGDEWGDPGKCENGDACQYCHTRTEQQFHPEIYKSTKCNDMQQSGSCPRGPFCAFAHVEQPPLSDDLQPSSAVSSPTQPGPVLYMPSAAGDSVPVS
Shared flanks, not repeated: GGGAGUUCUACAGUCCGACGAUC … CAACAGAGGAUUGAGCAUCA
| Strand | bound/input enrichment [ratio] |
| --- | --- |
| UAUGAAGUAUUUCAGACCCAGUAGUAGAACAUCACUCUGCCACUCACUCCUUUAUCUCCUACCCGUUAUUUAAAUUGGACUUUUAAUAUCCUACCAGCUGCUCUUCAGACACACAUGGUG | 1.01 |
| GUAUUUAAUGUUGAAGUUGUUGCUGUUUCAUCCAUUCAUACACAAGACCCUUAUCCCGACAAAUUCUUUGCUCUUGUCAAUGCUCUGGAUGAACACAUGUUCCCGGUCCGAAUUGGGGAC | 0.423 |
| UUUUUGAAGGGUGUGAUGCUUGGAAGCAUUUUCUGUGCUUUGAUCACUAUGCUAGGACACAUCCGGAUUGGUCAUGGAAAUAGAAUGCACCACCAUGAGCAUCAUCACCUACAAGCUCCU | 0.137 |
| UAAUAUAUUUUUCCUACUUGUGGGAAAAGUAUUAUAAGUUUGGUUAAAUUGUCAUGUUUACCGUUUUUCCAAGUACAUUUGUAACUACAGCAGGCCUUCUUCGUACUGCUGCUGUUGGAC | 0.251 |
| GAAUAUAUAGGUGAAGAAGAAGCUACAUUAGUUGAUUUUGUUUGUUCUAAGGUUAUGGCUCACCGUUCACCCCAGAGCAUUUUAGAUGAUGUUGCCAUGGUACUUGAUGAAGAAGCAGAA | 2.7 |
| UUGUUUUGCUCAUUUGAAGUCAUUUGCCAUUUUUUUGGCCUUUUGUGGAACUCUGCUGCUUUCCGAAGAAUUAUGAAAAAUAAUUGCCAUCAACAAUAUUUUGAGGCAGUAAAACCCCUU | 0.203 |
| CUGGUUGAUGGUGUUAAGAAAUUGUCAAUCUCUACUCCUGACAGAGGAAAAGAAGAUUCCCGUACUCCAGUUAUGAAAGAUGAGAACACCCCCAUACCACAGGACACAAGAGGCUUAUCA | 0.327 |
| CUAUCAAAGGUUCCGGCUUGAAGGGAACUGUCACUACCCCCUCUAGGAAGUUAUUUUAUGCCGCAUGUUUGCAUAUACGCAUUGUGUGGCAUGUGCAUAGAGGCUUGUUUUACACCUAUC | 0.737 |
| AGGUCCAGUGUAUCUAAGGUGCCCUUAUUGCUUCCAAAUGUUUCUGCUUUGGAAUCUCAAACCGAAAUGGGCAACAUAGUUAAACCCAAAGUACUUACGAAAGAAGCAGAGGAAAAACUU | 0.185 |
| GGGGGCCAGGGGGCGGUGGCGGGAGGAUUGAGUGCCUAGACGGUCGCCCAGGAGCAGGUGCCGCUACUUCACAUCGACUGACUCCAAGAUGGCAAUCCAGUUGCGUUCGCUCUUCCCCUU | 0.44 |
| GAAGACCUGAAAAAGCUGCAUGAUGAAAAAAUCGAGUCAUUGAGAGCUGAAUUUCAGUGCUCCGAACAAAAUCACCUGAAGGAAUUAGAGGACACACUGCACAUCAGGCACACACAGGAG | 0.591 |

Set 6 — method: RNA Bind-n-Seq; molecule type: RNA; medium: in vitro; concentration: 365 nM; reference: no-protein control; direction: higher = stronger binding
Target: RNA binding protein fox-1 homolog 2, RRM domain, GST-SBP tag (RBFOX2, Homo sapiens, UniProt O43251-10, residues 100-194)
Notes: natural RNA segment, single round, ends assumed
Shared flanks, not repeated: GGGAGUUCUACAGUCCGACGAUC … UGGAAUUCUCGGGUGCCAA
Construct (chain): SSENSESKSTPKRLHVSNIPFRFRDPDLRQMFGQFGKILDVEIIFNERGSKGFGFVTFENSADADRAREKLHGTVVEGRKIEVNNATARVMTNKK
| Strand | RBNS enrichment (R) |
| --- | --- |
| AUUGCCAGGAAUGUUUCAGCUGCAGUUGAAGAGCCUGACAAGUGAAGUUGUAAACACAGUGUGGUUAUGGGGAGAGGGCAUAUAAAUUCCCCAUAUUUGUGUUCAGUUCC | 0.343 |
| ACAGUGGUGGGUGGGGAGGCGAUAGGAAACACAUUCCCCAGUGUGCAUUUAACAUUCAUAGCCUACAACCACAGACGUGUCUGGGGGAGCCUGGCAAGGCGUUCCUCGUC | 0.402 |
| CUGAUCCCAGGGCUUCCAGGAAAGCUCUGGCUUUGGAGCAGAAGCGGGUUCUAGGACUUAGUGCCCCUCACUCGGUGCCUGGGUUCCUGUGUGUGUGGAAAGGGUAGGGC | 1.26 |
| AAUAUUCUACUGUGACAUGAAAAGUUCCUGUAUUUUCAAAAACUUUUCUAUUAAAAUUGAUUUAACUAUAAGUUUUUUAAAGUUUUAAAUUAUUUCACACAUGAAUCACU | 0.783 |
| UCCCUUUUGUCUGGACUGACCUGACCCAUGAUGUUUGGACUACAUGUAGGUGAGCGCCCGCAUUGCAAAGCUGACUCAGGUCCACUGGGCUGAAGGUCCCUUGGAGCCCA | 0.614 |
| UCUCAACAAAAGGUAUAUGCCUUCAGGAAUGAUAUAAUCUGUCCCAUUUUCGAGGCUCCUUAUAAGGACAUUUCCAUGUAUGUCCUUACAUUUCUGAAAGCUUUCAAUCU | 0.231 |
| CCCACCACCUGUCCGUCCCUGUCCCCUUUCCUGCUGGCAGGAGCCGGCUGCCUACCAGGGGCCUUCCUGUGUGGCCUGCCUUCACCCCACUCAGCUCACCUCUCCCUCCA | 0.685 |
| CCAUCCUUAAUCCAAAAUUUUGAGUCAAGUCUUAUAAGUGGAAAAUUCCAGUGAACAUUUAUUUUGUAUAUAAAAUUUUAAACCUAUUGUGUGAAGCUACCCUCAGGCUA | 1.04 |
| UCCUAAAAGUAACAGGUUUCGUGUGAGUGUGCUUGUAUACGUGAGAUUUGCCUUAUUUUCAGGUUGUUUUAUUUAACGAUGGUUCCUUGGACAGCAUUCUGGUGUUCAGC | 8.82 |
| UUAACUGUAUUGGUGUAAGAGUUUUGUCAUUAAGUGUUUAAGUGUUAUUCUGAAUUUUCUACCUUAGUUAUCAUUAAUGUAGUUCCUCAUUGAACAUGUGAUAAUCUAAU | 0.823 |
| CCGCAAAGAAAUUGAGUUGAUUAGGCAAGUCUAUACAAUUAGAGGCAAAGGUCACAGUGAUGCAAAAGACAAAACUGAUGUCCUUAUCCUUAGACAAUUAACCACCAAAU | 0.536 |
| GGCUGGGGGUGGCAAAAUCAAUGACUUUUCUAACUAGGGAAGCCCUGUGGCCUCCAAAUUCACUGACAUGUUUUGGAACAGCUAGAAAUAUGAGCAGCAUGGAUAACCUG | 1.07 |
